Measurements from different studies.
Lines come from different studies, so protocols differ. “And” joins repeats or separate records; there may be more than shown. Numbers after ± are the reported error.
NT5E membrane-bound form: 5'-nucleotidase, membrane-bound form (NT5E, Homo sapiens, UniProt P21589)
HTR6: 5-hydroxytryptamine receptor 6 (HTR6, Homo sapiens, UniProt P50406)
CSNK1E: Casein kinase I isoform epsilon (CSNK1E, Homo sapiens, UniProt P49674)
SIRT5: NAD-dependent protein deacylase sirtuin-5, mitochondrial (SIRT5, Homo sapiens, UniProt Q9NXA8)
ADORA2A: Adenosine receptor A2a (ADORA2A, Homo sapiens, UniProt P29274)

SMILES | target | assay | test system | conditions | inhibition
Cc1cc2c(cc1N1C(=O)c3cccc4c(CCCO)ccc(c34)C1=O)n(C)c(=O)n2C (racemic) | BAZ2B (Homo sapiens, UniProt Q9UIF8) | binding, BROMOscan binding |  | 100 nM | 68%
Cn1cc(-c2cnc3ccc(NC(=O)Nc4ccc(F)c(Br)c4)cc3n2)cn1 | MAP3K3 (Homo sapiens, UniProt Q99759) | kinase binding, KiNativ profiling, measured: Lys1 peptide | PANC-1 lysate | 10 µM | 11.8%
COC(=O)CNC(=O)CCSc1nc(C)cc(C)c1C#N | NT5E membrane-bound form | CD73 activity, inhibitor, malachite green phosphate | MDA-MB-231 | 100 µM, added: 200 µM AMP | 31 ± 4%
COc1cccc(OC[C@@H]2CN(CCN3CCc4ccccc43)CCO2)c1 | HTR6 | radioligand binding |  | concentration not given, added: [3H]LSD | 19.4%
Fc1ccc(-c2ncn(-c3ccc4ccccc4c3)c2-c2ccncc2)cc1 | CSNK1E | inhibitor |  | 1 µM | 15%
COCCOCCOCCNC(=O)c1sc2nc(C)cc(C)c2c1N | NT5E membrane-bound form | CD73 activity, inhibitor, malachite green phosphate | MDA-MB-231 | 100 µM, added: 200 µM AMP | -3 ± 7%
Clc1cccc(OC[C@H]2CN(CCN3CCc4ccccc43)CCO2)c1 | HTR6 | radioligand binding |  | concentration not given, added: [3H]LSD | 9.2%
CCS(=O)(=O)c1nc(S(=O)(=O)c2ccccc2Cl)c(N2CCN(C)C(=O)[C@H]2C)s1 | HTR6 |  |  | 10 µM | 18%
CC(C)c1noc2ncc(C(=O)c3ccccc3O)cc12 | KCNJ2 (Homo sapiens, UniProt P63252) | ion current, inhibitor, whole-cell patch clamp |  | 10 µM | 3.7% and 2.7% and 0% and 4.7%
Cc1cccc(-c2nc(CN(C)C)[nH]c2-c2ccncc2)c1 | CSNK1E | kinase activity |  | 1 µM | 29%
Clc1cncc(OC[C@@H]2CN(CCN3CCc4ccccc43)CCO2)c1 | HTR6 | radioligand binding |  | concentration not given, added: [3H]LSD | 10.6%
O=C(NO)c1ccc(CN2CCCCc3ccccc32)c(F)c1 | OPRK1 (Homo sapiens, UniProt P41145) | radioligand binding, PDSP radioligand binding |  | 10 µM | 15%
Cc1cccc(-c2nc[nH]c2-c2ccncc2)c1 | CSNK1E | kinase activity |  | 1 µM | 42%
CNc1cc(Oc2cc(C(=O)Nc3cc(N4CCN(C)CC4)cc(C(F)(F)F)c3)ccc2C)ncn1 | SLK (Homo sapiens, UniProt Q9H2G2) | kinase activity |  | 1 µM | -12.8%
CN(C(=O)n1cnc(-c2ccc[n+]([O-])c2)c1)C1CCCCC1 | Glutamate receptor ionotropic, NMDA 1, glycine site (Grin1, Rattus norvegicus, UniProt P35439) | binding |  | 10 µM, glycine site, strychnine-insensitive | 9.94%
O=C(CN1CCO[C@@H](COc2cccnc2)C1)N1CCc2ccccc21 | HTR6 | radioligand binding |  | concentration not given, added: [3H]LSD | 21.4%
Cc1cc(F)cc2c(CCC(=O)N[C@@H]3C(=O)NC[C@H]3O)c(-c3ccc(F)cc3)[nH]c12 | phosphodiesterase 3 | enzyme activity |  | 10 µM | -8%
O=C(NC1CCC1)[C@H](Cc1c[nH]c2ccccc12)NC(=O)[C@H](CCCCNC(=S)NCNc1cccc(B(O)O)c1)NS(=O)(=O)c1cccc(F)c1 | SIRT5 | enzyme activity, inhibitor |  | 100 µM | 17%
Cc1nn(-c2nc3ccccc3s2)c(O)c1C(c1ccccc1C(=O)O)c1c(C)nn(-c2nc3ccccc3s2)c1O | Cyclic GMP-AMP synthase, catalytic domain; with DNA (CGAS, Homo sapiens, UniProt Q8N884) | cGAS phase separation, inhibitor |  | 1.25 µM | 96.9%
Cc1cc(C)c2c(N)c(C(=O)Nc3cccnc3)sc2n1 | NT5E membrane-bound form | CD73 activity, inhibitor, malachite green phosphate | MDA-MB-231 | 100 µM, added: 200 µM AMP | 16 ± 6%
CCN(Cc1ccccc1C(F)(F)F)C(=O)C1CCN(S(=O)(=O)c2ccc3[nH]ncc3c2)CC1 | rat L-type calcium channel | radioligand binding |  | 10 µM, benzothiazepine site | 37%
O=C(NC1CCC1)[C@H](Cc1c[nH]c2ccccc12)NC(=O)[C@H](CCCCNC(=S)NCCc1cc(O)no1)NS(=O)(=O)c1cccc(F)c1 | SIRT5 | enzyme activity, inhibitor |  | 100 µM | 69%

SMILES | target | assay | test system | conditions | inhibition
COc1cccc(CNC(=O)C#Cc2cn(Cc3ccc(C(=O)O)cc3)c(=O)[nH]c2=O)c1 | Collagenase 3 (MMP13, Homo sapiens, UniProt P45452) |  |  | 6.5 µM | 100 ± 1%
Cc1ncccc1OC[C@H]1CN(CCN2CCc3ccccc32)CCO1 | HTR6 | radioligand binding |  | concentration not given, added: [3H]LSD | 10.7%
Cc1ccc(CNC(=O)[C@H](CCc2ccccc2)NC(=O)[C@H](CCc2ccccc2)NC(=O)[C@H](CCc2ccccc2)NC(=O)c2cnc(C)cn2)cc1 | Procathepsin L (CTSL, Homo sapiens, UniProt P07711) | enzyme activity |  | 100 µM | 12%
Cc1cc(C)c(C#N)c(SCC(=O)Nc2cccnc2)n1 | NT5E membrane-bound form | CD73 activity, inhibitor, malachite green phosphate | MDA-MB-231 | 100 µM, added: 200 µM AMP | -6 ± 7%
Cc1ccc(C(=O)Nc2nc3ccccc3[nH]2)cc1 | ADORA2A |  |  | 30 µM | 21 ± 4%
Cc1ccc(C(=O)Nc2ccc3ccccc3c2)o1 | PACC1 (Homo sapiens, UniProt Q9H813) | ion current, inhibitor, whole-cell patch clamp |  | 10 µM | 1.88% and 0.97% and 0% and 2.44% and 7.4%
CN1CCN(c2cc(-c3ccncc3)c(-c3ccc4ccccc4c3)nn2)CC1 | AGTR1 (Homo sapiens, UniProt P30556) | antagonist, FLIPR |  | 10 µM | 9.8%
NC/C(=C\F)COc1cccc(Cn2c(=S)[nH]c(=O)c3[nH]cnc32)c1 | Amine oxidase copper-containing 3 (Canis lupus familiaris, UniProt A0A8I3MYY3) | inhibitor | dog adipose tissue | 3 µM | 104%
O=C(O)/C(=C/c1c(C(=O)O)[nH]c2cc(Cl)cc(Cl)c12)c1ccccc1 | Grin1 (Rattus norvegicus, UniProt P35439) | binding |  | 1 × 10 µM | 99.3%
COc1cc(-c2cc(C(C)=O)n3ccccc23)c(OC)cc1Cn1ccnc1 | CECR2 (Homo sapiens, UniProt Q9BXF3) |  |  | 1 µM | 99.6%
O=C(Nc1nc2ccccc2[nH]1)c1ccccc1O | ADORA2A |  |  | 30 µM | 46 ± 5%
O=C(Nc1cccc2c(=O)cc(-c3nnn[nH]3)oc12)c1ccc(OCCCCc2ccccc2)cc1 | Volume-regulated anion channel subunit LRRC8C, part LRRC8A IL1 chimera (LRRC8C, Homo sapiens, UniProt Q8TDW0, L136K) | ion current, inhibitor, whole-cell patch clamp | HCT LRRC8-/- cells | 10 µM, +100 mV | 84.8% and 93% and 86.3% and 93.3%
Cc1cccc(NC(=O)CSc2nc(C)cc(-c3ccccc3)c2C#N)n1 | NT5E membrane-bound form | CD73 activity, inhibitor, malachite green phosphate | MDA-MB-231 | 100 µM, added: 200 µM AMP | 27 ± 9%
COc1cc(Cl)c(C(=O)N[C@@H](CN[C@H]2CC[C@@H](N)CC2)Cc2ccc(C#N)cc2)cc1-c1ccc(CN[C@H](C)c2ccc(C)cc2)o1 | ADORA3 (Homo sapiens, UniProt P0DMS8) | agonist response, antagonist | human cells | 10 µM, A3 antagonist | -10%
Cc1cccc(NC(=O)c2sc3nc(C)cc(C(F)(F)F)c3c2N)n1 | NT5E membrane-bound form | CD73 activity, inhibitor, malachite green phosphate | MDA-MB-231 | 100 µM, added: 200 µM AMP | 33 ± 9%
CC[C@@H]1[C@H](F)C(=O)N[C@@H]1COc1nccc2cc(C(N)=O)c(OC)cc12 | PRKD2 (Homo sapiens, UniProt Q9BZL6) | ATP-site probe binding, ActivX profiling, measured: PKD2 | THP-1 cell lysate | 0.01 mM, Lys1 site | 1.1%
COc1cc2c3c(c1OC)-c1cc4c(cc1CC3N(C)CC2c1ccccc1)OCO4 (centres unmarked) | GABAA | binding, radioligand binding |  | concentration not given | < 50%
c1cncc(OC[C@@H]2CN(CCN3CCc4ccccc43)CCO2)c1 | HTR6 | radioligand binding |  | concentration not given, added: [3H]LSD | -10.6%
COC(=O)c1ccc(NC(=O)CSc2nc(-c3ccccc3)cc(C(F)(F)F)c2C#N)cc1 | NT5E membrane-bound form | CD73 activity, inhibitor, malachite green phosphate | MDA-MB-231 | 100 µM, added: 200 µM AMP | -69 ± 16%
CC/C(=N\NC(=O)NCc1cccc(O)c1)c1ccc(O)c(C)c1O | Mitotic checkpoint serine/threonine-protein kinase BUB1, with BUB3 (BUB1, Homo sapiens, UniProt O43683) | kinase activity |  | 0.1 µM | -2.5%
COc1nc(NCc2cn(-c3ccc(C(=O)Nc4ccc(C(F)(F)F)cc4)cc3)nn2)nc(OC)n1 | Stromelysin-2 (Homo sapiens, UniProt P09238) | inhibitor |  | 0.1 µM | 13.1 ± 0.411%
O=C1NC(=O)C2(CCCCc3ccccc32)N1 (centres unmarked) | GABA-A receptor alpha-1/beta-3, with gamma-2 subunit (GABRA1/GABRB3, Homo sapiens, UniProt P14867+P28472) | reversal, anesthetic-enhanced desensitization |  | concentration not given | 69%

Repeated from above:
SMILES | target | assay | test system | conditions | inhibition
Clc1cccc(OC[C@H]2CN(CCN3CCc4ccccc43)CCO2)c1 | HTR6 | radioligand binding |  | concentration not given, added: [3H]LSD | 9.2%
CCS(=O)(=O)c1nc(S(=O)(=O)c2ccccc2Cl)c(N2CCN(C)C(=O)[C@H]2C)s1 | HTR6 |  |  | 10 µM | 18%
Cc1cccc(NC(=O)c2sc3nc(C)cc(C(F)(F)F)c3c2N)n1 | NT5E membrane-bound form | CD73 activity, inhibitor, malachite green phosphate | MDA-MB-231 | 100 µM, added: 200 µM AMP | 33 ± 9%
O=C(Nc1cccc2c(=O)cc(-c3nnn[nH]3)oc12)c1ccc(OCCCCc2ccccc2)cc1 | Volume-regulated anion channel subunit LRRC8C, part LRRC8A IL1 chimera (LRRC8C, Homo sapiens, UniProt Q8TDW0, L136K) | ion current, inhibitor, whole-cell patch clamp | HCT LRRC8-/- cells | 10 µM, +100 mV | 84.8% and 93% and 86.3% and 93.3%
Cc1cccc(-c2nc[nH]c2-c2ccncc2)c1 | CSNK1E | kinase activity |  | 1 µM | 42%
O=C(O)/C(=C/c1c(C(=O)O)[nH]c2cc(Cl)cc(Cl)c12)c1ccccc1 | Grin1 (Rattus norvegicus, UniProt P35439) | binding |  | 1 × 10 µM | 99.3%
